Published values of several laboratories.
Values joined by “and” are separate records of one study, mostly repeats; a detail may differ. ± marks the error that the study gave.
HTR7: 5-hydroxytryptamine receptor 7 (HTR7, Homo sapiens, UniProt P34969)
UniProt P34969, sequence (whole entry, looked up): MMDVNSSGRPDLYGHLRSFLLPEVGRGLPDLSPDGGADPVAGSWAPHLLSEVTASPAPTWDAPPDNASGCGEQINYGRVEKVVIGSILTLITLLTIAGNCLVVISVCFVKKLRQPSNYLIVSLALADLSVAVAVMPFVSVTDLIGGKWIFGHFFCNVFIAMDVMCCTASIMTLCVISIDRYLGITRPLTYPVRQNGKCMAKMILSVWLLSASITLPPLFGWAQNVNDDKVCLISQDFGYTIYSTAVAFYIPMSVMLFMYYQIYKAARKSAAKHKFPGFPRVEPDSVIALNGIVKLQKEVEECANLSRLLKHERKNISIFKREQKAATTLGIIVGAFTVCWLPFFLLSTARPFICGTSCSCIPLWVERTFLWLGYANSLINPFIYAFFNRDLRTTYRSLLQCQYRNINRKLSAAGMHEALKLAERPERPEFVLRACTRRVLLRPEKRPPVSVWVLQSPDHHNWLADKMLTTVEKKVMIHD
HTR2A: 5-hydroxytryptamine receptor 2A (HTR2A, Homo sapiens, UniProt P28223)
UniProt P28223, sequence (whole entry, looked up): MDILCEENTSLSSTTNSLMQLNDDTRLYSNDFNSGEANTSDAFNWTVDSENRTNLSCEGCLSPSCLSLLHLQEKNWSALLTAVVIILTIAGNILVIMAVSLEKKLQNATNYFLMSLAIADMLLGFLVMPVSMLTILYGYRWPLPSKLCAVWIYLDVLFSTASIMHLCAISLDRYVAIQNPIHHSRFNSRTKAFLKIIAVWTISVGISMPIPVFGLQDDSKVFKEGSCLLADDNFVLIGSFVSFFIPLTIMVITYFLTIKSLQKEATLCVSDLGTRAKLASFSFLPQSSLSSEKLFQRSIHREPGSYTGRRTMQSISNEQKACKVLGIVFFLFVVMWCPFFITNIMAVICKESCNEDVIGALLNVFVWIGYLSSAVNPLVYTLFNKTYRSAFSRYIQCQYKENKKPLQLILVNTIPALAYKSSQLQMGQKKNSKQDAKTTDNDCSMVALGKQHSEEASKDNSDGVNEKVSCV
TOP2A: DNA topoisomerase 2-alpha (TOP2A, Homo sapiens, UniProt P11388)
UniProt P11388, sequence (whole entry, looked up): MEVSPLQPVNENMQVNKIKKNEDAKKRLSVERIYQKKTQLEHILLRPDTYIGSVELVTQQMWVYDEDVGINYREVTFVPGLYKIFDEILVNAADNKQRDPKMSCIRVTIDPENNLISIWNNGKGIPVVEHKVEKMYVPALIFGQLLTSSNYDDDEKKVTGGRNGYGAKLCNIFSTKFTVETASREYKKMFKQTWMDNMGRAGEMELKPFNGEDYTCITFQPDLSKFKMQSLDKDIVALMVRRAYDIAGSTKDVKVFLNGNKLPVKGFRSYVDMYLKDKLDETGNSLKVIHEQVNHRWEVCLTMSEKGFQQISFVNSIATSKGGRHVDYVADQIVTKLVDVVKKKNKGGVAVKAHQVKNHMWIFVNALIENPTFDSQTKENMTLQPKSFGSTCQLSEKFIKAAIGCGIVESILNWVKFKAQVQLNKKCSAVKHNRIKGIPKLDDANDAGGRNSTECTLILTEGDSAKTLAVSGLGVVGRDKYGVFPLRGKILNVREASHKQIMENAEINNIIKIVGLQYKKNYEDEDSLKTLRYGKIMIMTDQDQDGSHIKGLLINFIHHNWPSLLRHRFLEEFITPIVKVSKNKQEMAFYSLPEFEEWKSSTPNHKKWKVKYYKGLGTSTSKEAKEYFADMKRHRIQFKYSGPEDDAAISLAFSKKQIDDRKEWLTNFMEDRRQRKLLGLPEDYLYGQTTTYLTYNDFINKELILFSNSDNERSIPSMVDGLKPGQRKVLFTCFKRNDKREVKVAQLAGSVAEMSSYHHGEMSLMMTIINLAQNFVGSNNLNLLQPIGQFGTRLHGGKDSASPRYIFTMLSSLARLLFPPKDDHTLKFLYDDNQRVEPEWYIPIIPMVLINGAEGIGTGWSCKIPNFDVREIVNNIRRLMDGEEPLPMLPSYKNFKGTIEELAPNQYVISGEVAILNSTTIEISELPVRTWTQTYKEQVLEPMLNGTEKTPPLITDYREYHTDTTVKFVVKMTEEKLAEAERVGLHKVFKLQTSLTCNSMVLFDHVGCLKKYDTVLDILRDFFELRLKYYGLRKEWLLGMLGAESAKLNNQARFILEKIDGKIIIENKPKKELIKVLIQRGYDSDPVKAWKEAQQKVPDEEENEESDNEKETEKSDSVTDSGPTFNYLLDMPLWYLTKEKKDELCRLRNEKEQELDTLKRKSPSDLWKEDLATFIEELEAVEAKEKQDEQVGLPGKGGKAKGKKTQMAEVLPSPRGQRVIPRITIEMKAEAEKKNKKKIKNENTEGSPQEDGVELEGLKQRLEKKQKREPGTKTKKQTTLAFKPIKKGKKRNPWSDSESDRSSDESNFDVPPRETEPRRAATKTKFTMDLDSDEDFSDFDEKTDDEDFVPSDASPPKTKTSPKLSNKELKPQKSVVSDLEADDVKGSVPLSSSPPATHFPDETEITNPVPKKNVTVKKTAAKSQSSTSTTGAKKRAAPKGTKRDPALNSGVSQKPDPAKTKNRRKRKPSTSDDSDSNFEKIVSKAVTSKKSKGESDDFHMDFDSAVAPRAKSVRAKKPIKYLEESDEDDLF
T1: ssDNA, aptamer; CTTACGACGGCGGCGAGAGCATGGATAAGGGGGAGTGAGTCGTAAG
UniProt Q64663, sequence (whole entry, unmodified, looked up): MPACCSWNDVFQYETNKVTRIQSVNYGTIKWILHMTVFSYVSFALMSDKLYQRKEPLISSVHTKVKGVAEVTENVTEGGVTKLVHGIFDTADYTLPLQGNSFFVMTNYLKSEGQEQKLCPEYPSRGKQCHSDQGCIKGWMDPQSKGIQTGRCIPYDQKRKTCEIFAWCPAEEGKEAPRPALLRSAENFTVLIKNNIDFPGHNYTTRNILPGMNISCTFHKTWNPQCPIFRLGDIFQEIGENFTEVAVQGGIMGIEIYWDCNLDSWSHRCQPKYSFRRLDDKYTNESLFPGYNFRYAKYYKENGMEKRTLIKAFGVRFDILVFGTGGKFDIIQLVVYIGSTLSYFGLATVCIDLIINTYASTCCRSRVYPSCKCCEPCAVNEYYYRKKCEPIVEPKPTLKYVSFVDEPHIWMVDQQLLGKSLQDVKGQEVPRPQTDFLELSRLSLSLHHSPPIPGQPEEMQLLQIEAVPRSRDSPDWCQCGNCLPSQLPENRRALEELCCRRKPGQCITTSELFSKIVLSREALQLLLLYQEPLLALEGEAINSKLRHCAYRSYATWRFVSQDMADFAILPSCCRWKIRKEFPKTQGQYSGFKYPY
UniProt P51575, sequence (whole entry, unmodified, looked up): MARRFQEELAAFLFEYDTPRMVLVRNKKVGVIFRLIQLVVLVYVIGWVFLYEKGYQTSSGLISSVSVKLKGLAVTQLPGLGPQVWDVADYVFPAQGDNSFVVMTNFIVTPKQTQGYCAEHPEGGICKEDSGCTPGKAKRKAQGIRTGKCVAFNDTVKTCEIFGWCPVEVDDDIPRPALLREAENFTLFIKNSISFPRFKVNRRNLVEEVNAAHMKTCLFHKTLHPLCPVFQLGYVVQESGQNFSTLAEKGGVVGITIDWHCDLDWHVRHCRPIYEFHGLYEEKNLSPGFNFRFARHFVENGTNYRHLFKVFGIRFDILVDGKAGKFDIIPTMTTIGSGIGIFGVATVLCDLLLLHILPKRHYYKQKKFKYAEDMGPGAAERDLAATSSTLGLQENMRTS
UniProt O76090, sequence (whole entry, looked up): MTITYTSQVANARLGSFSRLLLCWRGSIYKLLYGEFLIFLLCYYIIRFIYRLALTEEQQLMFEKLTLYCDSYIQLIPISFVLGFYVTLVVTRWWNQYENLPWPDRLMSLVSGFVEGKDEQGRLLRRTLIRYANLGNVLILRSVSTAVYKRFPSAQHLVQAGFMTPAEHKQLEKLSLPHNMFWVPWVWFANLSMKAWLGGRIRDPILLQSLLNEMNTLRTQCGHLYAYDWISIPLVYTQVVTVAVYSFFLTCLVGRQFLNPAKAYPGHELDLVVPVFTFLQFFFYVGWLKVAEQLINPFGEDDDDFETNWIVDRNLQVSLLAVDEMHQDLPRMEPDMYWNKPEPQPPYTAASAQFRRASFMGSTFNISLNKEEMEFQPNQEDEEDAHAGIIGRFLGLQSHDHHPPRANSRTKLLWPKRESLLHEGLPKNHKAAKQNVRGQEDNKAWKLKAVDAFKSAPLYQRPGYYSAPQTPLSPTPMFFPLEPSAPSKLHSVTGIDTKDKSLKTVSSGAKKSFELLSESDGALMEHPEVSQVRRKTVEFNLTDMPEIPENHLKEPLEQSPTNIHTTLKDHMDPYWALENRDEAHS
UniProt O75822, sequence (whole entry, looked up): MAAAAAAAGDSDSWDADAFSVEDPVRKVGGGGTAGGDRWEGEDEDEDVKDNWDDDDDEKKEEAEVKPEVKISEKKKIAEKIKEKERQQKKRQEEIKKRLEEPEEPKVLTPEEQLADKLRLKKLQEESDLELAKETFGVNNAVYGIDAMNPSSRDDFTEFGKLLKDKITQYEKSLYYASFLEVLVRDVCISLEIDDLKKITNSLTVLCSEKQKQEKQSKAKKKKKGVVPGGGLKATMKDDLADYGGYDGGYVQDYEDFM
UniProt Q15825, sequence (whole entry, unmodified, looked up): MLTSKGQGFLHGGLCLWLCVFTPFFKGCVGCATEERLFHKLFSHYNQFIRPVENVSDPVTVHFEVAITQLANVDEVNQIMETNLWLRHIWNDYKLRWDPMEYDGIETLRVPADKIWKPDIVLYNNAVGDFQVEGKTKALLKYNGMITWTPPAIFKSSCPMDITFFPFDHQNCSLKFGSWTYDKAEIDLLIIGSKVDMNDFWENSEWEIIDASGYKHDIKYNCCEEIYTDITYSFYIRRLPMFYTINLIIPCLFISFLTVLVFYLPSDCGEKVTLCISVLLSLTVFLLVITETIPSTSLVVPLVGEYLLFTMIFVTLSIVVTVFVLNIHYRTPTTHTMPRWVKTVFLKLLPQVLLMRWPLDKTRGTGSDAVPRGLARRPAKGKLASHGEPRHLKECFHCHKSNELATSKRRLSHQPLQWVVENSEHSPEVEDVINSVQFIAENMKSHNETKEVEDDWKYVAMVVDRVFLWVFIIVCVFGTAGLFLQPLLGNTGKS
UniProt P02754, sequence (whole entry, looked up): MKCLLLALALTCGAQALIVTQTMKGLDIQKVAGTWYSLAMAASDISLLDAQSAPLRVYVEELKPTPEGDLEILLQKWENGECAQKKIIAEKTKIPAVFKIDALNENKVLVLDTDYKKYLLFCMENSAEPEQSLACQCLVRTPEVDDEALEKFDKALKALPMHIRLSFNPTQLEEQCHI

SMILES	target	test	system	setting	how to read	measurement	value
C[S+](CC[C@H](N)C(=O)[O-])C[C@H]1O[C@@H](n2cnc3c(N)ncnc32)[C@H](O)[C@@H]1O (some centres unmarked)	KMT2C (Homo sapiens, UniProt Q8NEZ4)	substrate, enzyme-coupled methylation		added: H3 peptide 800 µM		apparent Vmax	4 ± 0.2 µM/min
Nc1ncnc2c1ncn2[C@@H]1O[C@H](COP(=O)(O)OP(=O)(O)OP(=O)(O)O)[C@@H](O)[C@H]1O	P2X purinoceptor 7 (P2rx7, Rattus norvegicus, UniProt Q64663, I214A/Q143A)	ion current, agonist, two-electrode voltage clamp	Xenopus laevis oocytes	33 µM	baseline: highest concentration response	normalized current	0 and 0.01 and 0.03
COc1cc(F)ccc1-c1ncnc(Nc2cccc(C[S@](C)(=N)=O)c2)n1	MAPK12 (Homo sapiens, UniProt P53778)	kinase activity		10 µM, added: 10 µM ATP		remaining activity	103%
N#Cc1ccn2c(-c3ccncc3)c(-c3ccc(F)cc3)nc2c1	Protein kinase C-like 1 (Candida albicans, UniProt P43057)	kinase binding, competitor, MIB/MS competition, refers to: PKC1	Candida albicans cell lysate	100 nM	baseline: DMSO	log2 fold change	-0.137
Nc1nc2c(ncn2[C@@H]2O[C@@H]3COP(=O)(O)O[C@H]3[C@H]2O)c(=O)[nH]1	Cone cGMP-gated channel (Morone saxatilis, UniProt Q3I0N1+Q3I0N2)	channel current, agonist, suction electrode	cone outer segments	single cone shown, added: 2 µM Ca2+		Hill coefficient	1.98
Cc1cc(Nc2cc(N3CCN(C)CC3)nc(Sc3ccc(NC(=O)C4CC4)cc3)n2)[nH]n1	NEK6 (Homo sapiens, UniProt Q9HC98)	kinase activity, KinaseProfiler		0.03 µM, species human	baseline: control	remaining activity	105%
Nc1ncnc2c1ncn2[C@@H]1O[C@H](COP(=O)(O)OP(=O)(O)OP(=O)(O)O)[C@@H](O)[C@H]1O	Arsenical pump-driving ATPase (arsA, Escherichia coli, UniProt P08690)					Km	40 ± 3 µM
c1cncc(OC[C@H]2CN(CCN3CCc4ccccc43)CCO2)c1	HTR7	radioligand binding		concentration not given, added: [3H]LSD		inhibition	45.3%
NC(=O)C1=CN([C@@H]2O[C@H](COP(=O)(O)OP(=O)(O)OC[C@H]3O[C@@H](n4cnc5c(N)ncnc54)[C@H](O)[C@@H]3O)[C@@H](O)[C@H]2O)C=CC1	FSP1	oxidase activity, substrate, substrate consumption		added: atmospheric O2		Km	34 ± 9.53 µM
COCCC(=O)N1CCC(Oc2ccccc2)C1 (centres unmarked)	RFWD3 (Homo sapiens, UniProt Q6PCD5)	binding, affinity selection mass spectrometry			baseline: other proteins in batch	fold enrichment	0.868
CCS(=O)(=O)N1CC(CC#N)(n2cc(-c3ncnc4[nH]ccc34)cn2)C1	ORM1 (Homo sapiens, UniProt P02763)			added: Co^2+		change in binding constant	-30.1%
CN(C)C(=O)CCSC(SCCC(=O)O)c1cccc(/C=C/c2ccc3ccc(Cl)cc3n2)c1 (centres unmarked)	UGT1A1 (Homo sapiens, UniProt P22309)	glucuronidation, inhibitor	cell lysate	2.5 µM, added: genistein		genistein glucuronide formation	decreased
O=C(CN1CCO[C@@H](COc2cccnc2)C1)N1CCc2ccccc21	HTR2A	radioligand binding		concentration not given, added: [3H]ketanserin		inhibition	73.3%
Nc1ccc2cc3ccc(N)cc3nc2c1	Chymotrypsinogen A, activated (alpha-chymotrypsin) (Bos taurus, UniProt P00766)	isothermal titration calorimetry		concentration not given, 25 °C, added: 0.5 M glycine		entropic contribution TΔS° of binding	-17.7 ± 1.24 kcal/mol
CO[C@H]1O[C@H](COS(=O)(=O)O)[C@@H](O[C@@H]2O[C@@H](C(=O)O)[C@@H](O[C@H]3O[C@H](COS(=O)(=O)O)[C@@H](O[C@@H]4O[C@H](C(=O)O)[C@@H](O[C@H]5O[C@H](COS(=O)(=O)O)[C@@H](O)[C@H](O)[C@H]5NS(=O)(=O)O)[C@H](O)[C@H]4O)[C@H](OS(=O)(=O)O)[C@H]3NS(=O)(=O)O)[C@H](O)[C@H]2OS(=O)(=O)O)[C@H](O)[C@H]1NS(=O)(=O)O	Beta-2-glycoprotein 1, domain V (APOH, Homo sapiens, UniProt P02749, V266L)	isothermal titration calorimetry		298 K, added: 100 mM NaCl		entropic contribution TΔS	-0.474 kcal/mol
CCc1oc2c([C@H](CO)N(CC)CC)cccc2c1C	LPAR1 (Homo sapiens, UniProt Q92633, W210A)	Gi activation, agonist, NanoBiT G-protein dissociation	HEK293T	W210A mutant, unit not given	baseline: wild type	change in Emax	1.07
Nc1ncnc2c1ncn2[C@@H]1O[C@H](COP(=O)(O)OP(=O)(O)OP(=O)(O)O)[C@@H](O)[C@H]1O	T1, ssDNA, aptamer	ITC				Kd	646 nM
Cc1ncsc1-c1ccc([C@H](C)NC(=O)[C@@H]2C[C@@H](O)CN2C(=O)[C@@H](NC(=O)CCCCCCCCC(=O)N(CCO)CCCOc2ccc3c(Nc4cc(CC(=O)Nc5cccc(F)c5)[nH]n4)ncnc3c2)C(C)(C)C)cc1	Aurora kinase B (AURKB, Homo sapiens, UniProt Q96GD4)	degrader, western blot	HPAF-II cells	1 µM		onset of significant degradation	2 h
Cc1ccc(C[C@H](NC(=O)OC(C)(C)C)C(=O)NC/C=C/S(=O)(=O)c2ccccc2)cc1	Cathepsin S (CTSS, Homo sapiens, UniProt P25774)	inhibitor		added: Z-Phe-Arg-AMC		kinact/Ki	3640 M⁻¹ s⁻¹

SMILES	target	test	system	setting	how to read	measurement	value
Cc1ncccc1OC[C@@H]1CN(CCN2CCc3ccccc32)CCO1	HTR2A	radioligand binding		concentration not given, added: [3H]ketanserin		inhibition	33.9%
CC(=O)N[C@H](C(=O)N1C[C@H](O)C[C@H]1C(=O)NCc1ccc(-c2scnc2C)cc1)C(C)(C)SCCCCCCNC(=O)C[C@@H]1N=C(c2ccc(Cl)cc2)c2c(sc(C)c2C)-n2c(C)nnc21	BRD2/VHL, BD1; with VCB (Homo sapiens, UniProt P25440+P40337)	ITC		25 °C, BRD2 BD1, ternary		ΔG	-9 ± 0.3 kcal/mol
O=c1nc(SCc2cc(F)cc(C(F)(F)F)c2)nc(SCc2ccc3sccc3c2)[nH]1	TOP2A	decatenation		15.6 µM, replicate 1		decatenated DNA	0.56%
CC1(C)CC2(C)OC(=O)NC2(C)c2ccccc21 (centres unmarked)	WD repeat-containing protein 55 (WDR55, Homo sapiens, UniProt Q9H6Y2)	binding, affinity selection mass spectrometry			baseline: other proteins in batch	fold enrichment	0.854
O=C(COP(=O)(O)O)[C@@H](O)[C@H](O)[C@H](O)COP(=O)(O)O	Peroxisomal bifunctional enzyme (EHHADH, Homo sapiens, UniProt Q08426)	thermal proteome profiling, refers to: EHHADH	HepG2 cell lysate	concentration not given, 57 over 37 °C, mean	baseline: compound over control	thermal stability ratio	0.59
C=CC(=O)N1CCC(COCC(=O)N2CCN(c3nc(-c4cnc(N)nc4C(F)F)nc(N4CCOC[C@@H]4C)n3)CC2)CC1	TGFBR2 (Homo sapiens, UniProt P37173)	KINOMEscan		1 µM		remaining binding	100%
Cc1ccc(N2CC(C(N)=O)CC2=O)cc1 (centres unmarked)	Histone acetyltransferase type B catalytic subunit (Homo sapiens, UniProt O14929)	binding, affinity selection mass spectrometry			baseline: other proteins in batch	fold enrichment	0.889
Nc1ncnc2c1ncn2[C@@H]1O[C@H](COP(=O)(O)CP(=O)(O)OP(=O)(O)O)[C@@H](O)[C@H]1O	P2X purinoceptor 1 (P2RX1, Homo sapiens, UniProt P51575, K140A)	calcium influx		316 nM	baseline: ionomycin response	calcium influx	72.9% and 68.8% and 70.3% and 98%
COc1cccc(OC[C@H]2CN(CCN3CCc4ccccc43)CCO2)c1	HTR7	radioligand binding		concentration not given, added: [3H]LSD		inhibition	45.8%
O=c1cc(-c2ccc([N+](=O)[O-])cc2)[nH]c2c(-c3ccc(Cl)cc3)c(Cc3ccccc3)nn12	Eukaryotic translation initiation factor 3 subunit J (Homo sapiens, UniProt O75822)	thermal stability, binder, thermal proteome profiling	RD, cell lysate	50 µM, 0.5% DMSO	baseline: DMSO vehicle	melting temperature shift	3.8 °C
CC(=O)OCC[N+](C)(C)C	CHRNB4/CHRNA6 (Homo sapiens, UniProt P30926+Q15825, E185A)	two-electrode voltage clamp	Xenopus oocytes	α6β4 E155A mutant	baseline: wild type	current	decreased
CC1CCCN(C(=O)c2cc3ncccn3n2)C1 (centres unmarked)	STUB1 (Homo sapiens, UniProt Q9UNE7)	binding, affinity selection mass spectrometry			baseline: other proteins in batch	log fold enrichment	0.271
CCCC[C@H]1C(=O)N(C)[C@@H](CCCC)C(=O)N[C@@H](CCCCNC(=O)CN2CCN(CC(=O)O)CCN(CC(=O)O)CC2)C(=O)N[C@H](C(=O)NCC(N)=O)CSCC(=O)N[C@@H](Cc2ccc(O)cc2)C(=O)N(C)[C@@H](C)C(=O)N[C@@H](CC(N)=O)C(=O)N2CCC[C@H]2C(=O)N[C@@H](Cc2c[nH]cn2)C(=O)N[C@@H](CCC(=O)O)C(=O)N2C[C@H](O)C[C@H]2C(=O)N[C@@H](Cc2c[nH]c3ccccc23)C(=O)N[C@@H](CO)C(=O)N[C@@H](Cc2cn(CC(=O)O)c3ccccc23)C(=O)N1C [gallium-68 labelled]	CD274 (Homo sapiens, UniProt Q9NZQ7)		C6661	added: anti-PD-L1 antibody block		cell uptake	0.44%
Cc1nc(CSc2nc(SCc3ccc(C(C)C)cc3)nc(=O)[nH]2)cs1	TOP2A	DNA relaxation		31.25 µM, replicate 1		relaxed DNA	99.9%
O=C1N[C@H](c2cncc(C#Cc3ccccc3)c2)[C@@H](c2ccccc2Cl)O1	Metabotropic glutamate receptor 5 (Macaca mulatta, UniProt A0ACM8QRY8)	PET	rhesus monkey	intravenous, 0.03 mg/kg		receptor occupancy	27%
Nc1ccc(C(=O)O)cc1	BEST1 (Homo sapiens, UniProt O76090)	whole-cell patch clamp	HEK293 transiently expressing channel	concentration not given, membrane potential 100 mV		current density	205 pA/pF and 108 pA/pF and 87.8 pA/pF and 128 pA/pF and 173 pA/pF and 199 pA/pF and 148 pA/pF
CN[C@H](CC(=O)O)C(=O)O	uncharacterized protein (Ixodes scapularis, UniProt A0A0N9E2I2)	L-glutamate-like response, two-electrode voltage clamp	Xenopus laevis oocytes	100 µM		activity	inactive
CC[C@@H](C)[C@@H](NC(=O)[C@@H](Cc1ccc(O)cc1)NC(=O)[C@H]1CCCN1C(=O)[C@@H](CCCNC(=N)N)NC(=O)[C@H](N)Cc1c[nH]cn1)C(=O)N[C@H](C)C(=O)N[C@H](Cc1c[nH]cn1)C(=O)N[C@H](CCCNC(=N)N)C(=O)N[C@@H](C(=O)N[C@H](Cc1ccc(O)cc1)C(=O)N[C@H](CO)C(=O)N[C@H](Cc1ccccc1)C(N)=O)C(C)C	Transferrin receptor protein 1 (Tfrc, Mus musculus, UniProt Q62351)	flow cytometry	RAW264.7	48 h, pH 6, replicate 3, unit not given	baseline: 0 h	surface TFRC expression	1.13
CC(C)=CCC/C(C)=C/C=C/C(C)=C/C=C/C(C)=C/C=C/C=C(C)/C=C/C=C(C)/C=C/C=C(\C)CCC=C(C)C	Beta-lactoglobulin (LGB, Bos taurus, UniProt P02754)	intrinsic fluorescence		298 K	baseline: protein alone	fluorescence decrease	19%
